Published values gathered from unrelated publications.
Parts stem from different laboratories: compare values within a part only. Values joined by “and” are separate records of one study, mostly repeats; a detail may differ.
UniProt P53779, sequence (whole entry, looked up): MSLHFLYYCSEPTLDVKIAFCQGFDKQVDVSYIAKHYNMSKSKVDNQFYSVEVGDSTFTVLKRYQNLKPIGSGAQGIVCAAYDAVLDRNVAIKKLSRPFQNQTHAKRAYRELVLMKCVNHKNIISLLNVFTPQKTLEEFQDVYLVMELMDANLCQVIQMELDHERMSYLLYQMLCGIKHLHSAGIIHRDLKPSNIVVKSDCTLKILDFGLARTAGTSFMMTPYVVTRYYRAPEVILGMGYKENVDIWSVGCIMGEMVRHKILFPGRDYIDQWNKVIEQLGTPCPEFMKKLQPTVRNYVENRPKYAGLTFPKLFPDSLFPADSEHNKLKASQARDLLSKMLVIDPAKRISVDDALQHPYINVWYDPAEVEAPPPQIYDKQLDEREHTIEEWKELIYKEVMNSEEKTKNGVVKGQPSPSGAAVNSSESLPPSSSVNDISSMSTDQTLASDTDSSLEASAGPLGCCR
UniProt P42336, sequence (whole entry, unmodified, looked up): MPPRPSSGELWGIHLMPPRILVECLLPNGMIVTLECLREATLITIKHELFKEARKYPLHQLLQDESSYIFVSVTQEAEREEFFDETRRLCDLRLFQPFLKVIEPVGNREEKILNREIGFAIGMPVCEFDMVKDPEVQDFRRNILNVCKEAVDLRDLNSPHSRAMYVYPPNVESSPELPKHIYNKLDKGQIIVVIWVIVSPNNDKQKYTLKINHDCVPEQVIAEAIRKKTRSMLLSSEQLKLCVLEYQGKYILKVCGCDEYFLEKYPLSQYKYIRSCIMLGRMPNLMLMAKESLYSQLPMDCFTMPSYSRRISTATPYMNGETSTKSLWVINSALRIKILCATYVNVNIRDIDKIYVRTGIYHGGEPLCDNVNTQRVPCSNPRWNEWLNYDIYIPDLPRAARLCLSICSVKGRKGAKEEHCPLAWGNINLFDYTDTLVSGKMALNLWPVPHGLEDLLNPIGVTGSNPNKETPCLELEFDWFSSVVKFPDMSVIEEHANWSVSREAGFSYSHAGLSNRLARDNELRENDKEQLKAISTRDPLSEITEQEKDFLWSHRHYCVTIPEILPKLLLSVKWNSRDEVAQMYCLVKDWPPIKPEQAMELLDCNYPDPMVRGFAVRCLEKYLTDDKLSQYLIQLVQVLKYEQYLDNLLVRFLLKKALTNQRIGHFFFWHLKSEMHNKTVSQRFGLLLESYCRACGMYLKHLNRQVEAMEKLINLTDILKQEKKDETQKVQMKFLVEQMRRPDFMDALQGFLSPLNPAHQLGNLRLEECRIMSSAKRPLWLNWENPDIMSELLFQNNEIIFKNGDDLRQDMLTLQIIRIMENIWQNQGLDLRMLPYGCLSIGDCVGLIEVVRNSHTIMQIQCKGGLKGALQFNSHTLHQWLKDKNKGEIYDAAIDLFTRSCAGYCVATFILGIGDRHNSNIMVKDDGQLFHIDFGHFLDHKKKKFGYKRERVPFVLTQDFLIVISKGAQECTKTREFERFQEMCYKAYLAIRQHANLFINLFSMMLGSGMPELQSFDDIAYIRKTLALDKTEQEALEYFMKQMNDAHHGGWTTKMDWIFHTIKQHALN
UniProt P48729, sequence (whole entry, looked up): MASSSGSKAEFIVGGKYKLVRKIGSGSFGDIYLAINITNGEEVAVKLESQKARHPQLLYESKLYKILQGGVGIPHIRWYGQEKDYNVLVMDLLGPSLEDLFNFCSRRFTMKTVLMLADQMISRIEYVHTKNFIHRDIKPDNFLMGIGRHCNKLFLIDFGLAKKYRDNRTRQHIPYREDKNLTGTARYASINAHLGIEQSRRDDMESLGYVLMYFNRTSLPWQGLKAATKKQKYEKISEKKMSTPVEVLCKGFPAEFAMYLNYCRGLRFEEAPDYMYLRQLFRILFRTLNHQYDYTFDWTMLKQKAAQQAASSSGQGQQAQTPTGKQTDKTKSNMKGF

Sample 1
Compound: Cn1cc(Cl)c2c(Oc3c(F)cc(Nc4cc(Cl)nc(N)n4)cc3F)ccnc21
Effect on: cell-free assay
Method: competition with immobilised ligand
Concentration: 0.1 µM
MAP4K3 (Homo sapiens, UniProt Q8IVH8) — remaining binding: 100%.
It gave 88% for remaining binding (EGFR (Homo sapiens, UniProt P00533, del747-750/T751S)).
FLT1 (Homo sapiens, UniProt P17948) — remaining binding: 100%.
For MYLK4 (Homo sapiens, UniProt Q86YV6): remaining binding read 91%.
MKNK2 (Homo sapiens, UniProt Q9HBH9) — remaining binding: 90%.
It gave 96% for remaining binding (KIT (Homo sapiens, UniProt P10721, V559D)).
The remaining binding was 100% (LRRK2 (Homo sapiens, UniProt Q5S007, G2019S)).
MAPK10 (Homo sapiens, UniProt P53779) — remaining binding: 80%.
For NEK11 (Homo sapiens, UniProt Q8NG66): remaining binding read 85%.
TLK1 (Homo sapiens, UniProt Q9UKI8) — remaining binding: 100%.
For Tyrosine-protein kinase ABL1, non-phosphorylated (ABL1, Homo sapiens, UniProt P00519, H396P): remaining binding read 84%.
EPHA3 (Homo sapiens, UniProt P29320) — remaining binding: 83%.
The remaining binding was 98% (PLK3 (Homo sapiens, UniProt Q9H4B4)).
MINK1 (Homo sapiens, UniProt Q8N4C8) — remaining binding: 93%.
For LATS1 (Homo sapiens, UniProt O95835): remaining binding read 69%.
For CHEK2 (Homo sapiens, UniProt O96017): remaining binding read 94%.
PIK3CA (Homo sapiens, UniProt P42336, H1047Y) — remaining binding: 62%.
The remaining binding was 78% (FLT3 (Homo sapiens, UniProt P36888, D835H)).
It gave 100% for remaining binding (RIPK4 (Homo sapiens, UniProt P57078)).
For PIK3CA (Homo sapiens, UniProt P42336, E545A): remaining binding read 88%.
MAPK13 (Homo sapiens, UniProt O15264) — remaining binding: 95%.
It gave 100% for remaining binding (CDK11B (Homo sapiens, UniProt P21127)).
It gave 84% for remaining binding (CDC42BPA (Homo sapiens, UniProt Q5VT25)).
The remaining binding was 76% (MAP3K1 (Homo sapiens, UniProt Q13233)).
It gave 100% for remaining binding (MAP3K14 (Homo sapiens, UniProt Q99558)).

Sample 2
SMILES: O=C1CCC(N2Cc3cc(C4CCN(Cc5ccccc5)CC4)ccc3C2=O)C(=O)N1 (stereo not shown)
Action: degrader
CRBN/Zinc finger protein Helios: CRBN/Zinc finger protein Helios (Homo sapiens, UniProt Q96SW2+Q9UKS7)
UniProt Q96SW2, sequence (whole entry, looked up): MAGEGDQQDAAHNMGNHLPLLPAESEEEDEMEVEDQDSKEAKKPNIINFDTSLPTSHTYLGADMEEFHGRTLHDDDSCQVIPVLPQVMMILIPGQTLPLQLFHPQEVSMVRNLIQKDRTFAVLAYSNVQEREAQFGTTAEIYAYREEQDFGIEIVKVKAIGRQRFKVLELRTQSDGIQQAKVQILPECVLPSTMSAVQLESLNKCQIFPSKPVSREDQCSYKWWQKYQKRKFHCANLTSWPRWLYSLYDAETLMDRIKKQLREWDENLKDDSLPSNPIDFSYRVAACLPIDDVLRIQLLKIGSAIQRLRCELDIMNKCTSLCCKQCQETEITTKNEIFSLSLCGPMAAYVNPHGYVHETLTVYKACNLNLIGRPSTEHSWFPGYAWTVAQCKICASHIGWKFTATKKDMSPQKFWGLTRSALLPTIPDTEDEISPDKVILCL
UniProt Q9UKS7, sequence (whole entry, looked up): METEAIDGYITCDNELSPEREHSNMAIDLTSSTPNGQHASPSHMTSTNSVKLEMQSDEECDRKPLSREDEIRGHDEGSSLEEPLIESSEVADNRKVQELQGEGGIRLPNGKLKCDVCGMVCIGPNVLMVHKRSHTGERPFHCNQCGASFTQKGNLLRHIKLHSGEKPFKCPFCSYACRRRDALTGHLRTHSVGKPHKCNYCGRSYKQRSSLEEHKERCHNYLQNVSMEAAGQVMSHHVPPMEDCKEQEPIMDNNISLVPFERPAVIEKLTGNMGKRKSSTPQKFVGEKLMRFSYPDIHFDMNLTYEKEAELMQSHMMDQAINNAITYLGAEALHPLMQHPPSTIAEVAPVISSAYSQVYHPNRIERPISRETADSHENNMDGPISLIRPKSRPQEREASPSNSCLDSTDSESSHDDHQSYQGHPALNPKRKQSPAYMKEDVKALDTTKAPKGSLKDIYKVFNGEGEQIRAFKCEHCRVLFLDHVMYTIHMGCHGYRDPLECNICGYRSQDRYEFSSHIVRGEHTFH
GSPT1: Eukaryotic peptide chain release factor GTP-binding subunit ERF3A (GSPT1, Homo sapiens, UniProt P15170)
DNA-binding protein Ikaros: DNA-binding protein Ikaros (Homo sapiens, UniProt Q13422)
UniProt Q13422, sequence (whole entry, looked up): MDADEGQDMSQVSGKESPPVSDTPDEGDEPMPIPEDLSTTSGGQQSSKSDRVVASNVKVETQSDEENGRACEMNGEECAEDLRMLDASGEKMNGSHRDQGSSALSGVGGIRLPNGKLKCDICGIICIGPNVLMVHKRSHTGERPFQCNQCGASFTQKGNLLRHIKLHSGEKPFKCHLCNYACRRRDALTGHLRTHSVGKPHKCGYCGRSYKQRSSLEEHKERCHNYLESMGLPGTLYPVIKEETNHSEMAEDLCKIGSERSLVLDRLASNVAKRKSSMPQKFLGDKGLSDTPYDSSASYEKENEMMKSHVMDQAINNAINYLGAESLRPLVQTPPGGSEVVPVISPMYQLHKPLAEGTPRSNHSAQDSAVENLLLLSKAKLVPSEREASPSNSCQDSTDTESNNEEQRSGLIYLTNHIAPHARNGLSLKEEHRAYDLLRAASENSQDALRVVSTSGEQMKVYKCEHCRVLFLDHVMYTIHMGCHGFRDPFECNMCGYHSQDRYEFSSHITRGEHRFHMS
IKZF4: Zinc finger protein Eos (IKZF4, Homo sapiens, UniProt Q9H2S9)
UniProt Q9H2S9, sequence (whole entry, looked up): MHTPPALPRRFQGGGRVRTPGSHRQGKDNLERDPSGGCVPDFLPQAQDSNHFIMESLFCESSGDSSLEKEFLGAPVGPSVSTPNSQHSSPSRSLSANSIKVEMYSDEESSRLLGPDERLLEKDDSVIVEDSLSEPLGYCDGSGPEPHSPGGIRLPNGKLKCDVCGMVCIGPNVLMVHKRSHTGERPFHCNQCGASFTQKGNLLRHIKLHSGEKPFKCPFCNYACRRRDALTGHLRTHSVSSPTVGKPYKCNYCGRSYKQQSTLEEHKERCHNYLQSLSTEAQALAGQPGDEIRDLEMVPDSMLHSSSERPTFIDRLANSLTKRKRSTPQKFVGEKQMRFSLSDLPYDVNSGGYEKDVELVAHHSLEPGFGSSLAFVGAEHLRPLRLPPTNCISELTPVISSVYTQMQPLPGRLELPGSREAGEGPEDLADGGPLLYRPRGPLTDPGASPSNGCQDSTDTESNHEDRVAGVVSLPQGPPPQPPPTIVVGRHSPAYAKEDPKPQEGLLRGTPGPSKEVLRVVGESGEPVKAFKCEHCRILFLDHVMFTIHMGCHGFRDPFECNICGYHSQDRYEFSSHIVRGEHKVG
SALL4: Sal-like protein 4 (SALL4, Homo sapiens, UniProt Q9UJQ4)
UniProt Q9UJQ4, sequence (whole entry, looked up): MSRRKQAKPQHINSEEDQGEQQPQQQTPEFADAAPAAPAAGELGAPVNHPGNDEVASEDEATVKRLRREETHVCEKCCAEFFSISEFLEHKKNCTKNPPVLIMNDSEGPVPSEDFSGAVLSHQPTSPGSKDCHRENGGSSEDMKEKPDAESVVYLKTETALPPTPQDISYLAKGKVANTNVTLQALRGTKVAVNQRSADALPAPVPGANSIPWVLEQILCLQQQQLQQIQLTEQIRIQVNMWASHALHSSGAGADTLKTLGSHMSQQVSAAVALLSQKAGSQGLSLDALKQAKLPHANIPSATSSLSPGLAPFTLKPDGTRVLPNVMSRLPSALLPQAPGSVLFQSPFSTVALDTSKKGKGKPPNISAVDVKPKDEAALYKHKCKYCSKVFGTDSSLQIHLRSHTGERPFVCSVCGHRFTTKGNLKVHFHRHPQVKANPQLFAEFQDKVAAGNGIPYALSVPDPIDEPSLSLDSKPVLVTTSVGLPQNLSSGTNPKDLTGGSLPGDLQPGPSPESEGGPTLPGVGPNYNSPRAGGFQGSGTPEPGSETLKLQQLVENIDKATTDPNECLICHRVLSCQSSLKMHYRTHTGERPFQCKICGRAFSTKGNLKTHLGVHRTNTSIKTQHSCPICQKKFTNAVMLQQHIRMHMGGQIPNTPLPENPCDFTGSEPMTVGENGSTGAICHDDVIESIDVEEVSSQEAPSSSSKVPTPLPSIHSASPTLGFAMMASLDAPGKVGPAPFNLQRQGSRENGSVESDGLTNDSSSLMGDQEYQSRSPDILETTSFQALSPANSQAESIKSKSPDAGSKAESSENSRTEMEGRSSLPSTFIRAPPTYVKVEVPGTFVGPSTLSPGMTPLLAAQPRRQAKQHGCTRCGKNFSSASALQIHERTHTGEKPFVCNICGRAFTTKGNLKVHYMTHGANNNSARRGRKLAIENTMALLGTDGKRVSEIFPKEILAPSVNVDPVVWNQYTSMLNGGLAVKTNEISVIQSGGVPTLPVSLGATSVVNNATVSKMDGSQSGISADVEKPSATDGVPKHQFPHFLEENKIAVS
CRBN/Zinc finger protein Helios; flow cytometry; primary human regulatory T cells; 0.3333 µM, 6 h — remaining protein: 50.6%.
For GSPT1; HiBiT; HEK293; 0.04115 µM, 6 h: remaining protein read 91.4%.
The remaining protein was 94.7% and 97.1% (DNA-binding protein Ikaros; HiBiT; HEK293; 0.01372 µM).
It gave 84.9% and 92.2% for remaining protein (CSNK1A1 (Homo sapiens, UniProt P48729); HiBiT; HEK293 HiBiT-CK1α; 370.37 nM).
It gave 126% for remaining protein (IKZF4; HiBiT; HEK293; 0.3333 µM, 3 h).
The remaining protein was 86.8% (CRBN/Zinc finger protein Helios; flow cytometry; primary human regulatory T cells; 0.01235 µM, 6 h).
SALL4; HiBiT; HEK293; 0.04115 µM, 6 h — remaining protein: 54.2%.
The remaining protein was 44.9% and 46.2% (SALL4; HiBiT; HEK293; 10 µM).
GSPT1; HiBiT; HEK293; 1.111 µM, 6 h — remaining protein: 124%.
The remaining protein was 47.9% and 49.8% (SALL4; HiBiT; HEK293; 1.111 µM).
CRBN/Zinc finger protein Helios; flow cytometry; primary human regulatory T cells; 0.0001524 µM, 6 h — remaining protein: 104%.
For DNA-binding protein Ikaros; HiBiT; HEK293; 1.111 µM: remaining protein read 100% and 108%.
The remaining protein was 114% (IKZF4; HiBiT; HEK293; 1 µM, 6 h).

Sample 3
Target: WD repeat-containing protein 5 (WDR5, Homo sapiens, UniProt P61964)
Method: differential scanning fluorimetry
Concentration: concentration not given
Notes: unit not given
Baseline: WDR5 alone
C[C@@H]1CN(c2ccc(-c3cc(C(=O)NCCOCCOCCOCCOCCNC(=O)Cn4cc(-c5[nH]cc(C(=O)N[C@@H](CC(N)=O)c6ccc(F)c(Cl)c6)c5-c5ccc(Cl)cc5F)cn4)ccc3F)cc2NC(=O)c2c[nH]c(=O)cc2C(F)(F)F)C[C@H](C)N1C gave a ΔTm of 13.5 and 13.1 and 13.7 and 13.2 and 13.4 and 13.6 and 13.3.
For C[C@@H]1CN(c2ccc(-c3cc(C(=O)NCCCNC(=O)/C=C/c4[nH]cc(C(=O)N[C@@H](CC(N)=O)c5ccc(F)c(Cl)c5)c4-c4ccc(Cl)cc4F)ccc3F)cc2NC(=O)c2c[nH]c(=O)cc2C(F)(F)F)C[C@H](C)N1C, the ΔTm was 5.7 and 5.78 and 6.27 and 6.23 and 5.79 and 5.98 and 5.92 and 5.56.
For C[C@@H]1CN(c2ccc(-c3cc(C(=O)NCCOCCOCCOCCOCCNC(=O)/C=C/c4[nH]cc(C(=O)N[C@@H](CC(N)=O)c5ccc(F)c(Cl)c5)c4-c4ccc(Cl)cc4F)ccc3F)cc2NC(=O)c2c[nH]c(=O)cc2C(F)(F)F)C[C@H](C)N1C, the ΔTm was 10.8 and 10.3 and 10.7 and 10.5 and 10.4 and 10.6.

Sample 4
SMILES: O=C1Cc2c([nH]c3ccc([N+](=O)[O-])cc23)-c2ccccc2N1
Effect on: enzyme activity
Action: inhibitor
Concentration: 0.5 µM
Baseline: control
MAPK10 (Homo sapiens, UniProt P53779) — remaining activity: 97.2%.
The remaining activity was 63.4% (NTRK3 (Homo sapiens, UniProt Q16288)).
It gave 95.6% for remaining activity (PRKD1 (Homo sapiens, UniProt Q15139)).
The remaining activity was 106% (DYRK4 (Homo sapiens, UniProt Q9NR20)).
MAP3K2 (Homo sapiens, UniProt Q9Y2U5) — remaining activity: 78%.
For DMPK (Homo sapiens, UniProt Q09013): remaining activity read 91.6%.
It gave 64.4% for remaining activity (CSNK2A2 (Homo sapiens, UniProt P19784)).
It gave 80.2% for remaining activity (ROS1 (Homo sapiens, UniProt P08922)).
It gave 96% for remaining activity (Aurora kinase A (AURKA, Homo sapiens, UniProt O14965)).
The remaining activity was 96.2% (SLK (Homo sapiens, UniProt Q9H2G2)).
CAMK1G (Homo sapiens, UniProt Q96NX5) — remaining activity: 96%.
It gave 39.7% for remaining activity (BRSK1 (Homo sapiens, UniProt Q8TDC3)).
For HIPK3 (Homo sapiens, UniProt Q9H422): remaining activity read 96.6%.
The remaining activity was 107% (GRK5 (Homo sapiens, UniProt P34947)).
For PTK2B (Homo sapiens, UniProt Q14289): remaining activity read 82.9%.
NEK9 (Homo sapiens, UniProt Q8TD19) — remaining activity: 99.3%.
PKN2 (Homo sapiens, UniProt Q16513) — remaining activity: 74.5%.
The remaining activity was 81.6% (RET (Homo sapiens, UniProt P07949)).
For MAP3K8 (Homo sapiens, UniProt P41279): remaining activity read 99%.
For CDK7 (Homo sapiens, UniProt P50613): remaining activity read 99.9%.

Excerpt of the above (sample 4):
The remaining activity was 107% (GRK5 (Homo sapiens, UniProt P34947)).
The remaining activity was 63.4% (NTRK3 (Homo sapiens, UniProt Q16288)).
It gave 64.4% for remaining activity (CSNK2A2 (Homo sapiens, UniProt P19784)).
For DMPK (Homo sapiens, UniProt Q09013): remaining activity read 91.6%.
It gave 96% for remaining activity (Aurora kinase A (AURKA, Homo sapiens, UniProt O14965)).
For MAP3K8 (Homo sapiens, UniProt P41279): remaining activity read 99%.
It gave 80.2% for remaining activity (ROS1 (Homo sapiens, UniProt P08922)).
